Experimental data from different studies.
Protocols differ between the studies behind these lines. Values joined by “and” are separate records of one study, mostly repeats; a detail may differ. ± marks the error that the study gave.
Lysophospholipase-like protein 1: Lysophospholipase-like protein 1 (Mus musculus, UniProt Q3UFF7)
MAPK8: Mitogen-activated protein kinase 8 (MAPK8, Homo sapiens, UniProt P45983)
EGLN1: Egl nine homolog 1 (EGLN1, Homo sapiens, UniProt Q9GZT9)
APP Aβ1-40: Amyloid-beta precursor protein, Aβ1-40 (APP, Homo sapiens, UniProt P05067)
E3 ubiquitin-protein ligase NEDD4: E3 ubiquitin-protein ligase NEDD4 (Homo sapiens, UniProt P46934)
RPA1 N-terminal domain: Replication protein A 70 kDa DNA-binding subunit, N-terminal domain (RPA1, Homo sapiens, UniProt P27694)
Grm2: Metabotropic glutamate receptor 2 (Grm2, Rattus norvegicus, UniProt P31421)
GRM4: Metabotropic glutamate receptor 4 (GRM4, Homo sapiens, UniProt Q14833)

Amino acid sequences for entries named in this document (tags omitted). Residues count along the entry.
UniProt Q3UFF7, whole entry: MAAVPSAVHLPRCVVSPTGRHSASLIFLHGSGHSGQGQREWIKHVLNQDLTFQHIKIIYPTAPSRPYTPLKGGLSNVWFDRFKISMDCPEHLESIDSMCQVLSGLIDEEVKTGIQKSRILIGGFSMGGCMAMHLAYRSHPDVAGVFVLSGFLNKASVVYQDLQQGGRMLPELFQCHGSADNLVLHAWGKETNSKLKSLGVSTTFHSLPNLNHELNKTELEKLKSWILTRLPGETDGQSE
UniProt P45983, 1-384 isoform 3: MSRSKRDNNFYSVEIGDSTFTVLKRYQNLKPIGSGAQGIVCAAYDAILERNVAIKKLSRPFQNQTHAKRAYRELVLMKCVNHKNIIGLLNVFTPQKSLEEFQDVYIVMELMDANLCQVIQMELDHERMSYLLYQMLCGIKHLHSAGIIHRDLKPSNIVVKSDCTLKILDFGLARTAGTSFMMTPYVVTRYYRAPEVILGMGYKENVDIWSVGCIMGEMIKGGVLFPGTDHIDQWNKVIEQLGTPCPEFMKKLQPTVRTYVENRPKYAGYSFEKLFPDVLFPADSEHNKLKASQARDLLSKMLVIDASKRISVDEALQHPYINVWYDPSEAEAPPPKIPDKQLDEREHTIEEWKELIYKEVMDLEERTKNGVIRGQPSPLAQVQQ
UniProt P05067, whole entry, looked up: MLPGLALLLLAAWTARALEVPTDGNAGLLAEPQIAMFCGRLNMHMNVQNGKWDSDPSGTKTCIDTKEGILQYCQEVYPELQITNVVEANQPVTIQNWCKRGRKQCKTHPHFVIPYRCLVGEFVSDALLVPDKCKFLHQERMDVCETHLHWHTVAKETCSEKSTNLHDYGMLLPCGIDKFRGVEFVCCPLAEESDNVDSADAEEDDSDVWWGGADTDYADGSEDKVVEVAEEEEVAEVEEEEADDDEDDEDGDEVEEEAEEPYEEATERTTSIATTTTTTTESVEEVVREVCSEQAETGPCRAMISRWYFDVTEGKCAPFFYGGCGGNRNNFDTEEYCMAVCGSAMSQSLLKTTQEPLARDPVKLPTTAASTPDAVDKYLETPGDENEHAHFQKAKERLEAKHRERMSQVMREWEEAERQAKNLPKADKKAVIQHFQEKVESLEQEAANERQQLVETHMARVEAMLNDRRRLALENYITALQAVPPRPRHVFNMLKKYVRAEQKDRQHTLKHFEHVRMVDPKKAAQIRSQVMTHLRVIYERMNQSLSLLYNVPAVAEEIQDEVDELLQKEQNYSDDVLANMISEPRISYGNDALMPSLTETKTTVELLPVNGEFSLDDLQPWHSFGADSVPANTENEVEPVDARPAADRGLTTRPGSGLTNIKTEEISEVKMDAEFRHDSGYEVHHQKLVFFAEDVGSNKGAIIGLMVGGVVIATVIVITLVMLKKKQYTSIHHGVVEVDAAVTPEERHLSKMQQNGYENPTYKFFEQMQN
UniProt P46934, whole entry, looked up: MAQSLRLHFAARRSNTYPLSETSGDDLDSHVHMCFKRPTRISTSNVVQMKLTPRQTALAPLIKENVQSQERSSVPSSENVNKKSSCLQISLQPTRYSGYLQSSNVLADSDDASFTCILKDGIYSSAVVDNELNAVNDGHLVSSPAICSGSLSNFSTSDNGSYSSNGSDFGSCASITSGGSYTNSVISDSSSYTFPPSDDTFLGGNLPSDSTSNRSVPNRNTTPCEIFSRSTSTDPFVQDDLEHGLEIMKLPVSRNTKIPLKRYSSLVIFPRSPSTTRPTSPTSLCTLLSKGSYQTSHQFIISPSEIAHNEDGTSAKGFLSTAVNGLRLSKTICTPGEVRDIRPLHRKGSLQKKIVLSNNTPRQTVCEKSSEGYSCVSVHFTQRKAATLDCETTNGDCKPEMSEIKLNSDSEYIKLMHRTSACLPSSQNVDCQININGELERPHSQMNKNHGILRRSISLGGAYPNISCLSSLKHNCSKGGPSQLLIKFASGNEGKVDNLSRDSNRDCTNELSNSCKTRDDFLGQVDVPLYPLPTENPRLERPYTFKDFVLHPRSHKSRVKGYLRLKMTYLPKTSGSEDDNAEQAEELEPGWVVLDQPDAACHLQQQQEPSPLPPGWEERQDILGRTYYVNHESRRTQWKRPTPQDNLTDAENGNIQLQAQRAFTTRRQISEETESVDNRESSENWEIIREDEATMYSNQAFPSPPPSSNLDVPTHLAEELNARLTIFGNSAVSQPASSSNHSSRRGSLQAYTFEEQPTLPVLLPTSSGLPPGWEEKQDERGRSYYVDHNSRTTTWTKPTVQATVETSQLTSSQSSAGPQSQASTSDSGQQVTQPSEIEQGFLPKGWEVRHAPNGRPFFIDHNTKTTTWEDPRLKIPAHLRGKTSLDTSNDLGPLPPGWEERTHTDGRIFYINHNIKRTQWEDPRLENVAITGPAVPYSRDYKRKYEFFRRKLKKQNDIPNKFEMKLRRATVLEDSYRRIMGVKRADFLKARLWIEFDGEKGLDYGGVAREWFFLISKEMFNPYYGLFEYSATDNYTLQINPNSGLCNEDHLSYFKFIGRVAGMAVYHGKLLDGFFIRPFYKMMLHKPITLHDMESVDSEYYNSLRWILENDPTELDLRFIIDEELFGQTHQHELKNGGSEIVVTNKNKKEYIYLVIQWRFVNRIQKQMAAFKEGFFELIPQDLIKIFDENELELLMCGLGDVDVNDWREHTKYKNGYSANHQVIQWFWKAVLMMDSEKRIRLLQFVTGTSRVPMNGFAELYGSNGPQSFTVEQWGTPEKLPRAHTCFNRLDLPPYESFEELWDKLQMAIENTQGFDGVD
UniProt Q14833, 33-912 limits assumed: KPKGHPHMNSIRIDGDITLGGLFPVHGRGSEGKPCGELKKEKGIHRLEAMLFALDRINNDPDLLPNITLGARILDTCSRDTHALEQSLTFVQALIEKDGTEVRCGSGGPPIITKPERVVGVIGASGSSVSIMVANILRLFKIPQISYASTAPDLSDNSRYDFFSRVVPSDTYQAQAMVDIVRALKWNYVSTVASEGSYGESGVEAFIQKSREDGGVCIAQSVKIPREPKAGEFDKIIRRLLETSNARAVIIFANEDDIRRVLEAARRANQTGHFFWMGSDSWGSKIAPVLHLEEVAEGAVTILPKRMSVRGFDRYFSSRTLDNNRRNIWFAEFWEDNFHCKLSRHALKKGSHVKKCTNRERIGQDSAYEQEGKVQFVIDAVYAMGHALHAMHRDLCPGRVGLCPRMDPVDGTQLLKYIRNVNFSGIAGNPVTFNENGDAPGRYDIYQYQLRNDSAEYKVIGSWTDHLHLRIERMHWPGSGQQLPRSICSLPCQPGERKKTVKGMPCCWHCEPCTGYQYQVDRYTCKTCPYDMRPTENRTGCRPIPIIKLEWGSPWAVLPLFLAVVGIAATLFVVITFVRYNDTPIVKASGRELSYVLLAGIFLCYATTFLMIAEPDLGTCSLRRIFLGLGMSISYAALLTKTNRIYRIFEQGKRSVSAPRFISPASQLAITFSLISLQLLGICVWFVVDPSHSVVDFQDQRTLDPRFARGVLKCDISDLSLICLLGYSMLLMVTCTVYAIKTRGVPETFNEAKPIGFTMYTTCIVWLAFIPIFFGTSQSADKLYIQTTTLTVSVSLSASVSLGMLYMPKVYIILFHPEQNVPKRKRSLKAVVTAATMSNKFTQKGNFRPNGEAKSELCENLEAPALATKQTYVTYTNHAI
UniProt Q03111, 1-148 limits assumed: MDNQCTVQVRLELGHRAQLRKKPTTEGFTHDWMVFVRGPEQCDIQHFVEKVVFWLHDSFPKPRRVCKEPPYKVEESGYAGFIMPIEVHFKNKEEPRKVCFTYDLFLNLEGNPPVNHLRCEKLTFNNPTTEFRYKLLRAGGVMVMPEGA
UniProt P43220, whole entry, looked up: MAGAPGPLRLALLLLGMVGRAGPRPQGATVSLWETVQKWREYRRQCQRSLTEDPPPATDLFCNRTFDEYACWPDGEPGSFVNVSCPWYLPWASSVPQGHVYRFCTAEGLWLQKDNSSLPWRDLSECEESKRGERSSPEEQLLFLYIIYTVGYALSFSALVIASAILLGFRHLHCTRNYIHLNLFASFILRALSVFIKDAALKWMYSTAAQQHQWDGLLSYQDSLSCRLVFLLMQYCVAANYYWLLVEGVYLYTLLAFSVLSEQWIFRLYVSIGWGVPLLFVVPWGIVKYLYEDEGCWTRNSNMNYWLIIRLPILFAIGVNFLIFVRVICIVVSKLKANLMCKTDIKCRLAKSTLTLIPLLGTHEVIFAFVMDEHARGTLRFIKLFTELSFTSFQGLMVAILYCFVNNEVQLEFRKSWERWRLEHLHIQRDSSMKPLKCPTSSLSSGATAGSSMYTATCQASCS
UniProt Q00534, whole entry: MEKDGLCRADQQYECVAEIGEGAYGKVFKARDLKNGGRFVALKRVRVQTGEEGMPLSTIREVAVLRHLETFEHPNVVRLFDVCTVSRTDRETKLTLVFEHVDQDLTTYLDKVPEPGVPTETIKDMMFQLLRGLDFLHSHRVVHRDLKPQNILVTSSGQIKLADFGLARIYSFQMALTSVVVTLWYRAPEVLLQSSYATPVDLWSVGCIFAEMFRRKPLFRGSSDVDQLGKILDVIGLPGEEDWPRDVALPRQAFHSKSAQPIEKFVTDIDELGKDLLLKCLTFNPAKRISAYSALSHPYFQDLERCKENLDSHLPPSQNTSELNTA
UniProt Q9Y3Z3, whole entry: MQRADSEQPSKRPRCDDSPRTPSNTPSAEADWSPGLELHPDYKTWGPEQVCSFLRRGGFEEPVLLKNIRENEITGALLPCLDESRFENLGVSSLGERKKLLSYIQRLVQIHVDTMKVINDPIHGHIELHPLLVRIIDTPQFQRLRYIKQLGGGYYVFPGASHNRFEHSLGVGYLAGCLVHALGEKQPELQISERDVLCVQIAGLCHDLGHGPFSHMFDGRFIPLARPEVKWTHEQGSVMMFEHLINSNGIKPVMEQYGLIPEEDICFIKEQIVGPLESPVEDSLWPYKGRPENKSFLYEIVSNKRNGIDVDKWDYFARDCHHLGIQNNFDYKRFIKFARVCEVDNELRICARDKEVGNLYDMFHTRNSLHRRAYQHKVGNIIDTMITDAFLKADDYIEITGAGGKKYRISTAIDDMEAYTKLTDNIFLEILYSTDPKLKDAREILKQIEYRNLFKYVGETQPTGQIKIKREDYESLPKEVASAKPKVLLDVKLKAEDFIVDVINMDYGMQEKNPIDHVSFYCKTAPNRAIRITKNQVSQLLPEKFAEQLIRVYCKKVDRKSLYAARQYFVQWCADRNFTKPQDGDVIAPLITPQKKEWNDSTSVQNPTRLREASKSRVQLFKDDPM
UniProt Q99K82, whole entry: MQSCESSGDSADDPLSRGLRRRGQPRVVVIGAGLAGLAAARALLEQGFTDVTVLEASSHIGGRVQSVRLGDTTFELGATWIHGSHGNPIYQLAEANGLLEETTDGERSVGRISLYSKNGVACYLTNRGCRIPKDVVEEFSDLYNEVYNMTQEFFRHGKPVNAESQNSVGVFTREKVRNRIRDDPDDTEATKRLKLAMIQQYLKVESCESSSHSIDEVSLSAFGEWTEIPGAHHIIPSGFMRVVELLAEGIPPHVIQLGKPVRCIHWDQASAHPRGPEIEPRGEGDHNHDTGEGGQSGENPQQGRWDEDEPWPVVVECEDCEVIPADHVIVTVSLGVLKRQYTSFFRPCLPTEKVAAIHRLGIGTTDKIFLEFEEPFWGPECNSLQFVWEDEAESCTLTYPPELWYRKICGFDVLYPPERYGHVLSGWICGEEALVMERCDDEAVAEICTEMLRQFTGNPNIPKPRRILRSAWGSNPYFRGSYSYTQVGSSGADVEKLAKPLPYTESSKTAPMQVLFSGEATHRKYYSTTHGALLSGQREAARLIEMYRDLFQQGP
UniProt O15151, 23-111 limits assumed: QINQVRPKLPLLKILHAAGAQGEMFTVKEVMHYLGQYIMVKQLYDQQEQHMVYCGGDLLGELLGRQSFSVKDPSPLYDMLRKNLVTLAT
UniProt P03372, 311-547 limits assumed: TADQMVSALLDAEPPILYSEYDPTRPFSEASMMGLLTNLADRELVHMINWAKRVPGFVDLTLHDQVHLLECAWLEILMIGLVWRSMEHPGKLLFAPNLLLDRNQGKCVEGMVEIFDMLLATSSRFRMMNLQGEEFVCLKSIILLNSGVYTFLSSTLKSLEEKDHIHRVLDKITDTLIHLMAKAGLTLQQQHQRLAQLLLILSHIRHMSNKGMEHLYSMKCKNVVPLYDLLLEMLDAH
UniProt P29275, whole entry: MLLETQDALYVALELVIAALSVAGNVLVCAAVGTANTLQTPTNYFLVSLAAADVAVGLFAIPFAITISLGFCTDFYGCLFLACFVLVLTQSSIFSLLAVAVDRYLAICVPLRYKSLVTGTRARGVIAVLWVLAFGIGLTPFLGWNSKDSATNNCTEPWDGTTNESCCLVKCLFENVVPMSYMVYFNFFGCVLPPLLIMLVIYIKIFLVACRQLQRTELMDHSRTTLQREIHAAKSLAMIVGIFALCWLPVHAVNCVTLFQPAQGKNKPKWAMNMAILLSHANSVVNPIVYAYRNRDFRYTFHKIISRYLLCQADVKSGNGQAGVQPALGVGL

O=C(Nc1ccc(C(=O)N2CC(c3nccs3)C2)s1)[C@@H]1CCCN1
binding (Protein ENL (MLLT1, Homo sapiens, UniProt Q03111); concentration not given): no binding

Nc1nc(SCc2ccc(Cl)cc2)nn1S(=O)(=O)c1ccc2[nH]c(=O)[nH]c2c1
probe labelling (Lysophospholipase-like protein 1; activator, gel-based ABPP FP-rhodamine; reference: DMSO): 2.7 fold

Cc1cccc(C2NC(=O)c3c(Cl)cccc3N2)c1 (racemic)
fold loss of affinity (Protein polybromo-1, BD2 (PBRM1, Homo sapiens, UniProt Q86U86, Y262F); ITC; reference: wild-type BD2 over Y262F mutant): 8 fold

Cc1[nH]c2cc(Cl)cc(Cl)c2c1CCn1cc(C2(O)COC2)nn1
Emax (Glucagon-like peptide 1 receptor (GLP1R, Homo sapiens, UniProt P43220); cAMP accumulation, positive allosteric modulator, HTRF; 0.6 µM, purified compound, with: GLP-1(9-36) at EC20; reference: BETP): 118 ± 5%

Cc1cc(NC(=O)c2cccc(NC(=O)C3=CC(C)(C)CCC3=O)c2)ccc1Nc1nccc(-c2cccnc2)n1
remaining activity (MAPK8; kinase activity, inhibitor; 133.3 µM, unit not given, with: 10 mM GSH; reference: DMSO): 0.0673

O=C(Nc1cccc(-c2cc[nH]n2)c1)C(NS(=O)(=O)c1cccs1)c1ccccc1 (centres unmarked)
cAMP level (Uracil nucleotide/cysteinyl leukotriene receptor, long isoform (GPR17, Homo sapiens, UniProt Q13304); attenuation of MDL-mediated inhibition, antagonist; GLUTag; 10 µM, with: MDL 100 nM + forskolin 10 µM): no effect

COC(=O)[C@@]1(C)C=C(C(=O)Nc2cccc(C(=O)NC34CC(Nc5nccc(-c6cccnc6)n5)(C3)C4)c2)C(=O)CC1
remaining activity (MAPK8; kinase activity, inhibitor; 4.938 µM, with: 10 mM GSH): 0.0419 fraction of control

CC(=O)Nc1ncc(CN2CC[C@H](Oc3cccc(F)n3)C[C@@H]2C)s1 [isotope labelled]
Bmax (Protein O-GlcNAcase (Rattus norvegicus, UniProt Q8VIJ5); saturation binding; rat hippocampus homogenate; radiolabelled compound): 32.6 ± 9.8 nM

Cc1c(=O)n(C)c(Nc2ccc(I)cc2F)c2c(=O)n(C3CC3)c(=O)n(-c3cccc(NC(=O)CCNC(=O)CCOCCOCCOCCOCCOCCOCCOCCOCCOCCOCCOCCOCCNC(=O)CCCCC4SCC5NC(=O)NC54)c3)c12 (centres unmarked)
residence time (Dual specificity mitogen-activated protein kinase kinase 1 (MAP2K1, Oryctolagus cuniculus, UniProt P29678, S298N/S299K/Y300F); ≥500 nM target protein): 23.1 ± 0.6 min

COc1cc2c(cc1OC)C(=O)C(=Cc1ccccc1OC(=O)N(C)C)C2
KI (Cocaine esterase (CES2, Homo sapiens, UniProt O00748); inactivator): 3.84 nM

O=C(OC(C(F)(F)F)C(F)(F)F)N1CC(OC(c2ccccc2)c2ccccc2)C1
activity (Fatty-acid amide hydrolase 1 (FAAH, Homo sapiens, UniProt O00519); enzyme activity, inhibitor, fluorescence AAMCA substrate; 1 µM): inactive

C/C=C/Cn1c(Cc2cc(OC)c(OC)c(OC)c2)nc2c(N)ncnc21
TΔS (Heat shock protein HSP 90-beta, N-terminal domain (HSP90AB1, Homo sapiens, UniProt P08238); isothermal titration calorimetry; 298 K): -2.42 ± 0.18 kcal/mol

O=C(O)c1ccc(Nc2c(C(=O)O)ccnc2C(=O)O)cc1
remaining activity (EGLN1; inhibitor, HTRF; 400 µM): 0%

O=C1CCC(N2Cc3cc(-c4nc5ccccn5c4NC45CC6CC(CC(C6)C4)C5)ccc3C2=O)C(=O)N1 (centres unmarked)
DC50 ratio (WEE1/CRBN (Homo sapiens, UniProt P30291+Q96SW2, G322A); degrader, HiBiT; MOLM-14; 5 h; reference: G322A over wild type): 50 fold

O=[N+]([O-])c1cccc(/C=C/c2c[nH]c3ccc(F)cc23)c1
inhibition (APP Aβ1-40; Aβ40 aggregation, thioflavin T fluorescence; 25 µM): 31%

CCOC(=O)/C=C/CNCCCCN1c2ccccc2CCc2ccc(Cl)cc21
ubiquitination TR-FRET signal AUC (E3 ubiquitin-protein ligase NEDD4; inhibitor, Ub-TR-FRET; 0.1372 µM, 1 h preincubation, HECT domain, with: ATP 2 mM; higher = more ubiquitination): 78100 a.u. and 130000 a.u. and 127000 a.u. and 83600 a.u. and 82800 a.u. and 77300 a.u.

Cc1ccc(C(=O)Nc2ccccc2C(=O)O)cc1S(=O)(=O)Nc1ccccc1
ligand efficiency (RPA1 N-terminal domain; binding, fluorescence polarisation competition; with: FITC-ATRIP probe): 0.18

CN(C)C(=O)Cn1cc(-c2ccc(-c3cncc4ccncc34)cc2)cn1
inhibition (Cyclin-dependent kinase 6 (CDK6, Homo sapiens, UniProt Q00534); enzyme activity, SelectScreen; concentration not given): no inhibition

N#Cc1cnc(Nc2nc3ccccc3o2)nc1-c1ccc2ccccc2c1
maximal response (Metabotropic glutamate receptor 5 (Grm5, Rattus norvegicus, UniProt P31424); calcium mobilization, negative allosteric modulator; with: glutamate EC80; reference: glutamate maximum): 47 ± 11%

Nc1nc2c(ncn2COCCNC(=O)CCCCNC(=O)c2cc3cc(Br)ccc3c(Br)c2O)c(=O)[nH]1
delta Tm (Deoxynucleoside triphosphate triphosphohydrolase SAMHD1 (SAMHD1, Homo sapiens, UniProt Q9Y3Z3); differential scanning fluorimetry; 50 µM, 3 µM apo protein): 3.8 °C

COc1ccc(S(=O)(=O)n2nc(SCc3ccc(Cl)cc3)nc2N)cn1
probe labelling (Lysophospholipase-like protein 1; activator, gel-based ABPP FP-rhodamine; reference: DMSO): 2 fold

NCCCNCCCCNCCCNCc1ccccn1
relative Vmax (Smox (Mus musculus, UniProt Q99K82); substrate; reference: spermine): 0.108

CCOC(=O)/C=C/CNCCCN1c2ccccc2CCc2ccc(Br)cc21
ubiquitination TR-FRET signal AUC (E3 ubiquitin-protein ligase NEDD4; inhibitor, Ub-TR-FRET; 0.01524 µM, 1 h preincubation, HECT domain, with: ATP 2 mM; higher = more ubiquitination): 143000 a.u. and 147000 a.u. and 148000 a.u.

CC(C)Oc1cc(C#N)ccc1C1=N[C@@H](c2cccc(Cl)c2)[C@@H](c2ccc(Cl)cc2)N1C(=O)N1CCNC(=O)C1
binding stoichiometry (Protein Mdm4 (MDM4, Homo sapiens, UniProt O15151); isothermal titration calorimetry; concentration not given, 298 K): 1.6 ± 0.2

Cc1cc(SCc2sc(-c3cn[nH]c3)nc2C)ccc1OCC(=O)O
IC50 (Vitamin D3 receptor (VDR, Homo sapiens, UniProt P11473); reporter gene, antagonist; HEK-293T; up to 100 µM, CYP24A1 promoter luciferase, with: 1,25(OH)2D3 10 nM): inactive

NC(=O)c1cn(-c2ccc(F)cc2)c2ccc(CN3CCCCCC3)cc2c1=O
response (Grm2; calcium mobilization, negative allosteric modulator; 30 µM, with: glutamate 100 µM; reference: glutamate maximum): 0.55 ± 0.21%

O=C(Nc1ccccc1F)C12CC1/C(=N\O)c1ccccc1O2 (centres unmarked)
response (GRM4; positive allosteric modulator, calcium mobilization; CHO expressing Gqi5; concentration not given, with: glutamate EC20; reference: (±)-PHCCC): 72 ± 2.5%

O=S(=O)(Cc1ccc(-c2nc(-c3cccnc3)no2)o1)c1ccc(Cl)cc1
entropy change (Catenin beta-1, residues 141-305 (CTNNB1, Homo sapiens, UniProt P35222); isothermal titration calorimetry; concentration not given, 25 °C): 26.4 cal/(mol·K)

CC(C)C[C@H](NC(=O)[C@@H]1CCCN1C(=O)[C@H](CCC(N)=O)NC(=O)CNC(=O)[C@H](CO)NC(=O)[C@H](CCCNC(=N)N)NC(=O)[C@H](Cc1ccccc1)NC(=O)[C@H](CC(N)=O)NC(=O)[C@H](CCCNC(=N)N)NC(=O)[C@@H](NC(=O)c1ccccc1N)C(C)C)C(=O)N[C@@H](CCC(N)=O)C(=O)N[C@@H](CC(N)=O)C(=O)N[C@@H](CCCCN)C(=O)N[C@H](C(=O)N[C@@H](CCC(N)=O)C(=O)NCCNc1ccc([N+](=O)[O-])cc1[N+](=O)[O-])C(C)C
kcat/Km (Mitochondrial intermediate peptidase (MIPEP, Homo sapiens, UniProt Q99797); substrate, FRET peptide hydrolysis): 124000 M⁻¹ s⁻¹

CS(=O)(=O)Oc1ccc(/C=C/c2c[nH]c3ccc(C#N)cc23)cc1
inhibition (APP Aβ1-40; Aβ40 aggregation, thioflavin T fluorescence; 25 µM): 57%

Cn1ccnc1SCC(=O)Nc1ccc2nc(SCC(=O)NC3CC3)sc2c1
activity (Estrogen receptor, ligand-binding domain; with SRC-3 (ESR1, Homo sapiens, UniProt P03372); coactivator binding, TR-FRET; concentration not given, with: SRC-3 fragment): inactive

O=C(Nc1cccnc1)C12CC1/C(=N\O)c1ccccc1O2 (centres unmarked)
response (GRM4; positive allosteric modulator, calcium mobilization; CHO expressing Gqi5; concentration not given, with: glutamate EC20; reference: (±)-PHCCC): 36.6 ± 1.4%

CSc1ccccc1Nc1c(C(=O)O)ccnc1C(=O)O
remaining activity (EGLN1; inhibitor, HTRF; 400 µM): 100%

Nc1nc(SCc2ccc(Cl)cc2)nn1S(=O)(=O)c1ccc(C(F)(F)F)nc1
FP-rhodamine labelling (Lysophospholipase-like protein 1 (LYPLAL1, Homo sapiens, UniProt Q5VWZ2); activator, gel-based ABPP; purified protein; reference: DMSO): 1.8 fold

CN(c1ccncc1)c1ccc2c(c1)c(=O)c(C(N)=O)cn2-c1ccc(F)cc1
response (Grm2; calcium mobilization, negative allosteric modulator; 30 µM, with: glutamate 100 µM; reference: glutamate maximum): 1.16 ± 0.55%

CCOC(=O)/C=C/CNCCCCCN1c2ccccc2CCc2ccc(Cl)cc21
ubiquitination TR-FRET signal AUC (E3 ubiquitin-protein ligase NEDD4; inhibitor, Ub-TR-FRET; 33.33 µM, 1 h preincubation, HECT domain, with: ATP 2 mM; higher = more ubiquitination): 29800 a.u. and 17600 a.u. and 19900 a.u. and 17800 a.u. and 21400 a.u. and 18200 a.u.

O=C(Nc1ccc(F)cc1)C12CC1/C(=N\O)c1ccccc1O2 (centres unmarked)
response (GRM4; positive allosteric modulator, calcium mobilization; CHO expressing Gqi5; concentration not given, with: glutamate EC20; reference: glutamate 1 mM): 121 ± 8.6%

Nc1ncn([C@@H]2O[C@H](CO)[C@@H](O)[C@H]2O)c(=O)c1Cl
functional activity (Adenosine receptor A2b (ADORA2B, Homo sapiens, UniProt P29275); CHO; 10 µM): inactive

COc1ccc(NC(=O)CN2CCCN(S(=O)(=O)c3ccc(C)cc3C)CC2)c(OC)c1
maximal response (GRM4; calcium mobilization, positive allosteric modulator; CHO cells with Gqi5; with: glutamate; reference: PHCCC maximal response): 42.8%

Cc1cc(NC(=O)c2cccc(NC(=O)C3=CC(C)(C)CC3=O)c2)ccc1Nc1nccc(-c2cccnc2)n1
remaining activity (MAPK8; kinase activity, inhibitor; 14.81 µM, unit not given, with: 10 mM GSH; reference: DMSO): 0.0727

Cc1ccc(NS(=O)(=O)c2cc(C(=O)Nc3ccccc3C(=O)O)ccc2C)cc1C
ligand efficiency (RPA1 N-terminal domain; binding, fluorescence polarisation competition; with: FITC-ATRIP probe): 0.17
